Assay results collected from several papers.
Lines come from different studies, so protocols differ. Numbers after ± are the reported error.

Structure (SMILES)	target or system	assay	system	setting	quantity	value
CC[C@H](C)[C@@H]1NC(=O)[C@@H]2CCCN2C(=O)[C@H](CC(C)C)NC(=O)[C@H](CC(C)C)NC(=O)CNC(=O)[C@@H](NC(=O)[C@@H](NC(=O)[C@H](CC(=O)O)NC(=O)CNC(=O)[C@@H](NC(=O)[C@H](C)NC(=O)CNC(=O)[C@H](CCCCN)NC(=O)[C@H](CC(C)C)NC(=O)[C@H](CC(C)C)NC(=O)[C@H](CCCCN)NC(=O)CNC(=O)[C@@H](NC(=O)[C@@H](N)CC(C)C)C(C)C)C(C)C)C(C)C)CSSC[C@@H](C(=O)O)NC1=O	–	–	female C57BL/6 mice, plasma	intravenous, 10 mg/kg, two-compartment model	Tmax	13.8 ± 0.6 min
CCN(CC)CCCC[C@H](NC(=O)[C@H](CC(C)C)NC(=O)[C@H](C)NC(=O)[C@H](Cc1ccccc1)NC(=O)c1ccc(C(C)(C)C)cc1)C(=O)N[C@@H](CO)C(=O)OC	–	–	Swiss albino mice, male, blood	intraperitoneal, 10 mg/kg	Tmax	120 min
C[S+]([O-])c1ccc(-c2nc(-c3ccncc3)c(-c3ccc(F)cc3)[nH]2)cc1 (stereo not shown)	human coronavirus OC43	virus-induced cell killing	MRC-5	screen	maximum inhibition	14.8%
C[C@H]1COCCN1c1nc(NCc2cccnc2C(F)(F)F)c2cccnc2n1	–	–	SCID BALB/c mice	oral, 90 mg/kg	Tmax	45 min
COc1cc(C)[nH]c(=O)c1CNC(=O)c1c(C)n([C@H](C)C2CCN(CC(F)(F)F)CC2)c2ccccc12	–	–	female CB17 SCID mice, HT-1376 xenograft, plasma	75 mg/kg, day 1	Tmax	30 min
C[C@H]1N=C(c2ccccc2F)c2cc(Br)ccc2-n2cnc(C(=O)O[C@@H]3O[C@H](C(=O)O)[C@@H](O)[C@H](O)[C@H]3O)c21	–	–	Swiss Webster mice, blood	oral gavage, 100 mg/kg	Tmax	30 min
Cc1nonc1Cn1nnc2c(N3CC[C@H](O)C3)nc(C(C)(C)C)nc21	–	–	C57BL/6 mice	oral, 2.8 mg/kg	Tmax	15 min
CCC[C@@](N)(CO)CCc1ccc(OCCCCCC(C)C)cc1	–	–	C57BL/6 mice	oral, 10 mg/kg	Tmax	60 min
NC(=O)[C@@H]1CC(F)(F)CN1C(=O)c1ccc(N2CC(F)(F)C2)c(OCC2CC2)n1	–	–	C57BL/6 mice	oral, 2.8 mg/kg	Tmax	60 min
COc1cc(F)c(F)c(Nc2ccc(I)cc2F)c1NS(=O)(=O)C1(C[C@H](O)CO)CC1	human coronavirus OC43	virus-induced cell killing	MRC-5	maximum over 10 doses	maximum inhibition	0%
OCc1ncc2n1-c1ccc(Cl)cc1C(c1ccccc1F)=NC2	–	item: 1'-hydroxymidazolam	wild-type mice, plasma	iv, 500 mg/kg, 3 days, added: midazolam 0.3 mg/kg, phenobarbital, 10 mg/kg pregnenolone 16α-carbonitrile	Tmax	10 min
C[C@H]1N=C(c2ccccc2F)c2cc(Br)ccc2-n2cnc(C(=O)O)c21	–	–	Swiss Webster mice, blood	oral gavage, 100 mg/kg	Tmax	20 min
CN1CCN(S(=O)(=O)c2cc([N+](=O)[O-])ccc2N(CCOS(C)(=O)=O)CCOS(C)(=O)=O)CC1	–	–	naive female NSG mice, plasma	intraperitoneal, 5 mg/kg	Tmax	15 min

Some of these lines once more:
Structure (SMILES)	target or system	assay	system	setting	quantity	value
Cc1nonc1Cn1nnc2c(N3CC[C@H](O)C3)nc(C(C)(C)C)nc21	–	–	C57BL/6 mice	oral, 2.8 mg/kg	Tmax	15 min
CCC[C@@](N)(CO)CCc1ccc(OCCCCCC(C)C)cc1	–	–	C57BL/6 mice	oral, 10 mg/kg	Tmax	60 min
